Published values of several laboratories.
Numbered parts are unrelated; each lists some results of a single study.
UniProt P15056, sequence (whole entry, unmodified, looked up): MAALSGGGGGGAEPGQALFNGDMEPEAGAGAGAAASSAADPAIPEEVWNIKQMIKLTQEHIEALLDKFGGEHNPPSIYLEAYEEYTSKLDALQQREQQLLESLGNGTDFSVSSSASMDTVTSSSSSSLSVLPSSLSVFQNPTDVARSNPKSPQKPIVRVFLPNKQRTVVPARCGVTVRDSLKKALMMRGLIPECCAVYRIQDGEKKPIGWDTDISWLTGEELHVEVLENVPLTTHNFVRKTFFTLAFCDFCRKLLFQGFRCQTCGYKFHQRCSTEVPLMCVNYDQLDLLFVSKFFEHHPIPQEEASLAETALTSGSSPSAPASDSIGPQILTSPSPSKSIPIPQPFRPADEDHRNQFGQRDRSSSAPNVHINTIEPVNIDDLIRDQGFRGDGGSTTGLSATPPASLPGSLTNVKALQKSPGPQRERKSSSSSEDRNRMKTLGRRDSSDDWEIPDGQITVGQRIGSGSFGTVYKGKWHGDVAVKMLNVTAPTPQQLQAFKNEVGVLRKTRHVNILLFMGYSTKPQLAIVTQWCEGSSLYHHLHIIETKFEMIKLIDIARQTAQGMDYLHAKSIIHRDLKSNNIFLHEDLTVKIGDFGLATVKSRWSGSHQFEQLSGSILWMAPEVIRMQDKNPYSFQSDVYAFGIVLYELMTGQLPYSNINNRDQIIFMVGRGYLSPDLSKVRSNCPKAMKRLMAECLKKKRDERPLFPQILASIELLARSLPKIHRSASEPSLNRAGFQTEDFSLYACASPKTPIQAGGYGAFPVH
UniProt Q13976, sequence (whole entry, looked up): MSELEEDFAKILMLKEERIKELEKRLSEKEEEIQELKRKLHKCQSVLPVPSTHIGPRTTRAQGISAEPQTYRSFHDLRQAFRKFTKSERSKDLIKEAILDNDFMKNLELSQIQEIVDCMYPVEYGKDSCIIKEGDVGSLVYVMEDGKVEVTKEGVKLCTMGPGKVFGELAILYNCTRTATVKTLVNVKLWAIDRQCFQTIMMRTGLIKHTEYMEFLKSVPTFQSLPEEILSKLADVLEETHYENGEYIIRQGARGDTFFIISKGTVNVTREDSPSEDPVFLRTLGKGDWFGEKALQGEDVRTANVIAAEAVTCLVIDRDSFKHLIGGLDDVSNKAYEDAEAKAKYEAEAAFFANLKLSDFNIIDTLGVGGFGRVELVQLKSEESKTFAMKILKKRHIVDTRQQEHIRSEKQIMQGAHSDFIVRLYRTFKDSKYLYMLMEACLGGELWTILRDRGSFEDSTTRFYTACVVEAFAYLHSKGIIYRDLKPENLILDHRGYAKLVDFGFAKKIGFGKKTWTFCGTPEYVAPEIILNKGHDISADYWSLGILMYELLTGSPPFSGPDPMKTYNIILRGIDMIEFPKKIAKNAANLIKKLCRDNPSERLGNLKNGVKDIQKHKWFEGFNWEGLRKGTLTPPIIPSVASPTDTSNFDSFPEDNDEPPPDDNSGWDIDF
UniProt P54646, sequence (whole entry, looked up): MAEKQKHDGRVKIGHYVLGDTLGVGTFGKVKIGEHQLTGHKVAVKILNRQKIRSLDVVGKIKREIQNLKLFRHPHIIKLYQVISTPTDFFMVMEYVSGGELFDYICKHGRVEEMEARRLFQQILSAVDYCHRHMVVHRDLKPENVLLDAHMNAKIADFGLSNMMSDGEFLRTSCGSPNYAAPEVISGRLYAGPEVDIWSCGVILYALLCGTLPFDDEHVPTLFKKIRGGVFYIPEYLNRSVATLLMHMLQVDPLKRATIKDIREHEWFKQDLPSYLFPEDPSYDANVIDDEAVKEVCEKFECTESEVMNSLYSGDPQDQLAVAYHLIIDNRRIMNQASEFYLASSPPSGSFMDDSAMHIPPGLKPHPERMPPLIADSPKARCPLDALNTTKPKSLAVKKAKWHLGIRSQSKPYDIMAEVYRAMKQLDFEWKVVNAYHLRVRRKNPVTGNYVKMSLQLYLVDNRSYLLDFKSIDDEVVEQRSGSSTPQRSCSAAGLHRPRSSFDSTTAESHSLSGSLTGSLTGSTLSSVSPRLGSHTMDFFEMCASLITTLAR
UniProt Q16566, sequence (whole entry, looked up): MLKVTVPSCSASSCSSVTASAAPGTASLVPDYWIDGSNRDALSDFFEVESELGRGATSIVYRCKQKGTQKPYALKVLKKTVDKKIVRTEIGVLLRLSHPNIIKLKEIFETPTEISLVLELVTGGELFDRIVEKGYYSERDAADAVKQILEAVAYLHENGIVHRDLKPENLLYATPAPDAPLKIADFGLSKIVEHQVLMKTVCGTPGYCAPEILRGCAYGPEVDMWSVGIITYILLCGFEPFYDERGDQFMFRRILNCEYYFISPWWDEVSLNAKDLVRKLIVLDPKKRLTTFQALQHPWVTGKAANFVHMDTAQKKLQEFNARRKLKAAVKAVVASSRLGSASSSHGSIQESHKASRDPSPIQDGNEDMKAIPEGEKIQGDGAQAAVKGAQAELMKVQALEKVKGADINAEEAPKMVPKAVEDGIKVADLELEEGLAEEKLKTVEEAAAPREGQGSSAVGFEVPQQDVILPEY
UniProt Q96PN8, sequence (whole entry, looked up): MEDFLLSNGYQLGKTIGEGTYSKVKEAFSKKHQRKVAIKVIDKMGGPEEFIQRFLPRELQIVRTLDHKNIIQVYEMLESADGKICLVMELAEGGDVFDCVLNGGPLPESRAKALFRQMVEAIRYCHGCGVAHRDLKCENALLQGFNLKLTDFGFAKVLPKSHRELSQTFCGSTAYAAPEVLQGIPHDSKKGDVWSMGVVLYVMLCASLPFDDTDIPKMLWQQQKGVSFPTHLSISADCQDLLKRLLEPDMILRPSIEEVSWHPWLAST

Study 1
Target: Myosin light chain kinase 2, skeletal/cardiac muscle (MYLK2, Homo sapiens, UniProt Q9H1R3)
UniProt Q9H1R3, sequence (whole entry, looked up): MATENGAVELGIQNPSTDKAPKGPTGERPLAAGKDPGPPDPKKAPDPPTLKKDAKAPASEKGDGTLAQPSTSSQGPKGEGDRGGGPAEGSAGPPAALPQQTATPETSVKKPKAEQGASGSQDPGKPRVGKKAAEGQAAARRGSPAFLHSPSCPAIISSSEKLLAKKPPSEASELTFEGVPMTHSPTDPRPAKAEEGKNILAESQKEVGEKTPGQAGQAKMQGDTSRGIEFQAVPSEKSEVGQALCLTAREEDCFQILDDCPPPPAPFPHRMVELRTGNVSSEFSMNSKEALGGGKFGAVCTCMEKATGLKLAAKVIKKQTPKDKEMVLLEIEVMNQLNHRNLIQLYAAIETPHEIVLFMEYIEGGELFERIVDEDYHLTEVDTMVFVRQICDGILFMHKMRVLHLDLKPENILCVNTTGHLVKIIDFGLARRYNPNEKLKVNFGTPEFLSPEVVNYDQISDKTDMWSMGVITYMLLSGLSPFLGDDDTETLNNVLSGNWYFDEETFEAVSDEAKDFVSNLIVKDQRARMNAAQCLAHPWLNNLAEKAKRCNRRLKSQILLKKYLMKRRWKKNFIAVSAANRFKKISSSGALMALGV
Read-out: enzyme activity
Mode: inhibitor
Tested at: 0.5 µM
Baseline: control
Endpoint: remaining activity
CN1CCN(c2ccc3nc(-c4c(N)c5c(F)cccc5[nH]c4=O)[nH]c3c2)CC1: 5.92%
O=C(c1cc2cc(O)ccc2[nH]1)c1cc2cc(O)ccc2[nH]1: 21.1%
CCCNC(=O)Nc1ccc(Oc2ncnc3cc(OC)c(OC)cc23)cc1Cl: 99.9%
O=Nc1c(-c2c(O)[nH]c3cc(Br)ccc23)[nH]c2ccccc12: 17.6%
O=C1Cc2c([nH]c3ccc(Br)cc23)-c2ccccc2N1: 96.8%
O=c1cc(N2CCOCC2)oc2c(-c3ccccc3)cccc12: 102%
O=C1Nc2ccccc2/C1=C\c1c(Cl)[nH]c2ccccc12: 94.6%
O=C1Nc2ccc(Br)cc2/C1=C/c1cc2c([nH]1)CCCC2: 78.2%
CCCCc1c(-c2ccc(OC)cc2)[nH]c2nccnc12: 102%
Oc1cccc(-c2nc(N3CCOCC3)c3oc4ncccc4c3n2)c1: 99%
O=C1NC(=O)c2c1c1c3ccccc3[nH]c1n1cncc21: 33.7%
O=C1NC(=O)c2c1c1c3ccccc3[nH]c1c1[nH]c3cc(Br)ccc3c21: 43.3%
c1ccc(-c2n[nH]c3c2oc2ccccc23)cc1: 66.6%
COc1ccc(COc2ccc(Cc3cnc(N)nc3N)cc2OC)cc1: 104%
Cc1ccc(S(=O)(=O)/C=C/C#N)cc1: 105%
COc1ccc2c(c1)c(C1=C(c3c[nH]c4ccccc34)C(=O)NC1=O)cn2CCCN(C)C: 96%
N#Cc1cnc2cnc(NCc3cccnc3)cc2c1Nc1ccc(F)c(Cl)c1: 96.2%
CN(C)S(=O)(=O)c1ccc2c(c1)/C(=C/c1cc3c([nH]1)CCCC3)C(=O)N2: 97.9%
c1ccc2c(-c3ccncc3)c[nH]c2c1: 96.2%
COc1cccc(-c2cc(=O)c3ccccc3o2)c1N: 101%
Cc1cc(Nc2cc(N3CCN(C)CC3)nc(Sc3ccc(NC(=O)C4CC4)cc3)n2)[nH]n1: 18.9%

Study 2
Target: Calcium/calmodulin-dependent protein kinase type II subunit alpha (CAMK2A, Homo sapiens, UniProt Q9UQM7)
UniProt Q9UQM7, sequence (whole entry, looked up): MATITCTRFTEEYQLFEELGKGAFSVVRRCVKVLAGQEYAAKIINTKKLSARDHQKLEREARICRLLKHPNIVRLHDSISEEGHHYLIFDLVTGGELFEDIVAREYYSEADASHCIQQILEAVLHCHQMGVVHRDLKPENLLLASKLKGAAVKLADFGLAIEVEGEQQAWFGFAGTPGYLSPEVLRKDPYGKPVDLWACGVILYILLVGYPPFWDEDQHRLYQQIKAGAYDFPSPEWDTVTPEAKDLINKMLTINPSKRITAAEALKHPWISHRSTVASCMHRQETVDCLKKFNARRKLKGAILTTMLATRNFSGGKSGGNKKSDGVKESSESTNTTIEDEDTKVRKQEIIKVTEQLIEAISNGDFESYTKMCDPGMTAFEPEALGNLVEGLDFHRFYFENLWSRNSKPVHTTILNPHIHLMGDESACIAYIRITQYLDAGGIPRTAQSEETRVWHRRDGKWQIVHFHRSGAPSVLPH
Read-out: enzyme activity
Mode: inhibitor
Tested at: 10 µM
Endpoint: inhibition
CC(=O)c1c(O)cc(O)cc1O: 8%
C[C@@H]1O[C@@H](O[C@H]2[C@H](O[C@H]3CC[C@@]4(C)[C@@H](CC[C@]5(C)[C@@H]4CC=C4[C@@H]6CC(C)(C)CC[C@]6(C(=O)O)CC[C@]45C)[C@]3(C)CO)OC[C@H](O[C@@H]3O[C@H](CO)[C@@H](O)[C@H](O)[C@H]3O)[C@@H]2O)[C@H](O)[C@H](O)[C@H]1O: -41%
O=C(O)/C=C/c1c[nH]c2ccccc12: -13%
Cc1cc(O)cc(O[C@@H]2O[C@H](CO)[C@@H](O)[C@H](O)[C@H]2O)c1: -66%
COc1cc2oc(=O)ccc2c(OC)c1CC=C(C)C: -28%
COc1cc([C@@H]2c3cc4c(cc3[C@@H]3OC[C@H]2[C@@H]3CO)OCO4)cc(OC)c1OC: 4%
Cc1onc(-c2ccccc2Cl)c1C(=O)N[C@@H]1C(=O)N2[C@@H]1SC(C)(C)[C@@H]2C(=O)O: -6%
CC(=O)O[C@]1(C(C)=O)CC[C@H]2[C@@H]3C[C@H](C)C4=CC(=O)C=C[C@]4(C)[C@@]3(F)[C@@H](O)C[C@@]21C: -7%

Study 3
SMILES: CCS(=O)(=O)c1cc2cc(C[C@@](O)(CC(C)(C)c3ccc(F)cc3C(N)=O)C(F)(F)F)[nH]c2cn1
Read-out: cell-free assay
Technique: competition with immobilised ligand
Tested at: 1 µM
Endpoint: remaining binding
cGMP-dependent protein kinase 1 (PRKG1, Homo sapiens, UniProt Q13976): 89%
Testis-specific serine/threonine-protein kinase 3 (TSSK3, Homo sapiens, UniProt Q96PN8): 96%
Serine/threonine-protein kinase B-raf (BRAF, Homo sapiens, UniProt P15056, V600E): 100%
Insulin receptor (INSR, Homo sapiens, UniProt P06213): 86%
5'-AMP-activated protein kinase catalytic subunit alpha-2 (PRKAA2, Homo sapiens, UniProt P54646): 100%
Cyclin-dependent kinase 11B (CDK11B, Homo sapiens, UniProt P21127): 77%
Dual specificity protein kinase TTK (TTK, Homo sapiens, UniProt P33981): 78%
Serine/threonine-protein kinase B-raf (BRAF, Homo sapiens, UniProt P15056): 69%
Myosin light chain kinase, smooth muscle (MYLK, Homo sapiens, UniProt Q15746): 93%
Receptor tyrosine-protein kinase erbB-3 (ERBB3, Homo sapiens, UniProt P21860): 100%
Casein kinase I isoform gamma-2 (CSNK1G2, Homo sapiens, UniProt P78368): 95%
Macrophage-stimulating protein receptor (MST1R, Homo sapiens, UniProt Q04912): 85%
Death-associated protein kinase 1 (DAPK1, Homo sapiens, UniProt P53355): 0%
Calcium/calmodulin-dependent protein kinase type IV (CAMK4, Homo sapiens, UniProt Q16566): 100%

Study 4
Compound: C=CCc1ccc(O)c(-c2ccc(O)c(CC=C)c2)c1
Read-out: chloride current
Technique: whole-cell voltage clamp
Endpoint: IC50
ANO1 del476-501/L548A: Anoctamin-1 (ANO1, Homo sapiens, UniProt Q5XXA6, del476-501/L548A)
UniProt Q5XXA6, sequence (whole entry, unmodified, looked up): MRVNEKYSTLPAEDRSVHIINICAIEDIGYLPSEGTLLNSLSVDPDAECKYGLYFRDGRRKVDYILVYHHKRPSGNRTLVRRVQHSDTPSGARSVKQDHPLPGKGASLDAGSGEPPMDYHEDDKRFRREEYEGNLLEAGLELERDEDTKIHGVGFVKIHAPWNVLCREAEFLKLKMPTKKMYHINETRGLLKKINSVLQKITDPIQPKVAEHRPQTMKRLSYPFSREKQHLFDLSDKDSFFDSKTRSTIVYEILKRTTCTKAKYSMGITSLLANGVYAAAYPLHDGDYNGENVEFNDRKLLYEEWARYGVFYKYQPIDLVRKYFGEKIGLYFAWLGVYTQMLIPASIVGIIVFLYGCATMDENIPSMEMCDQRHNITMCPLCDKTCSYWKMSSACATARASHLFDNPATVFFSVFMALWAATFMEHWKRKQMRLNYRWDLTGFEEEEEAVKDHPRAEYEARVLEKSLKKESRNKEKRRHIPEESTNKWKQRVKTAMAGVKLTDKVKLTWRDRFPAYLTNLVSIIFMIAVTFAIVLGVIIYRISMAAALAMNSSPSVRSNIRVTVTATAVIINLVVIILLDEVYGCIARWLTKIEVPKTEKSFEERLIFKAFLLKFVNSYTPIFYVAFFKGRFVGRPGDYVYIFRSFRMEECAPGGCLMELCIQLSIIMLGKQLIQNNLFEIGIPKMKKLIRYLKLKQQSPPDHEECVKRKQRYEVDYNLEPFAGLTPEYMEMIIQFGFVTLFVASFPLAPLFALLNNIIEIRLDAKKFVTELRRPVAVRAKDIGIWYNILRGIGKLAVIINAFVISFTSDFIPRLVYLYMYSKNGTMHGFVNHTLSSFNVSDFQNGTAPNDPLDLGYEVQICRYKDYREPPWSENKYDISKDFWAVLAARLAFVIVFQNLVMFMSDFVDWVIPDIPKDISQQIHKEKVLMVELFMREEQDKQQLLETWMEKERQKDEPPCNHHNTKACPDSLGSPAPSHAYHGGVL
ANO1 del476-501: Anoctamin-1 (ANO1, Homo sapiens, UniProt Q5XXA6, del476-501)
ANO1 del476-501/L548A; membrane voltage -40 mV: 5.92 µM
Anoctamin-1 (ANO1, Homo sapiens, UniProt Q5XXA6, del476-501/M544A); inhibitor; pore pocket mutant M518A at 100 mV, with: 300 nM Ca2+: 4.62 µM
Anoctamin-1 (ANO1, Homo sapiens, UniProt Q5XXA6, del476-501/F628I); inhibitor; mutant F602I: 9.86 µM
ANO1 del476-501/L548A; membrane voltage 100 mV: 6.2 µM
ANO1 del476-501; membrane voltage -100 mV, with: 300 nM Ca2+: 3.23 µM
ANO1 del476-501; inhibitor; 80 mV voltage, with: 300 nM Ca2+: 4.85 µM
Anoctamin-1 (ANO1, Homo sapiens, UniProt Q5XXA6, del476-501/R631D); inhibitor; R605D mutant at 40 mV: 20.6 µM
Anoctamin-1 (ANO1, Homo sapiens, UniProt Q5XXA6, del476-501/F646A); inhibitor; pore pocket mutant F620A at 100 mV, with: 300 nM Ca2+: 9.57 µM
Anoctamin-1 (ANO1, Homo sapiens, UniProt Q5XXA6, del476-501/F807I); inhibitor; F781I mutant at -60 mV: 9.41 µM

Some of these lines once more (study 3):
Dual specificity protein kinase TTK (TTK, Homo sapiens, UniProt P33981): 78%
Serine/threonine-protein kinase B-raf (BRAF, Homo sapiens, UniProt P15056): 69%
Myosin light chain kinase, smooth muscle (MYLK, Homo sapiens, UniProt Q15746): 93%
Receptor tyrosine-protein kinase erbB-3 (ERBB3, Homo sapiens, UniProt P21860): 100%
Casein kinase I isoform gamma-2 (CSNK1G2, Homo sapiens, UniProt P78368): 95%
Macrophage-stimulating protein receptor (MST1R, Homo sapiens, UniProt Q04912): 85%
Death-associated protein kinase 1 (DAPK1, Homo sapiens, UniProt P53355): 0%
